Experimental data collected from several papers.
Compare with care: the assays were run in different laboratories.

| SMILES | system | setting | AUC |
| --- | --- | --- | --- |
| C/C(=C\c1csc(C)n1)[C@@H]1C[C@@H]2O[C@]2(C)CCC[C@H](C)[C@H](O)[C@@H](C)C(=O)C(C)(C)[C@@H](O)CC(=O)N1 | human patients, plasma | intravenous, 15 mg/m2, cycle 1 day 1, A | 682 ng·h/mL |
| COc1ccnc(C[S+]([O-])c2nc3ccc(OC(F)F)cc3[nH]2)c1OC (stereo not shown) | human, plasma | oral, dose not given, median | 5700 ng·h/mL |
| COCCc1ccc(OCC(O)CNC(C)C)cc1 (stereo not shown) | human | dose not given, alone | 617 ng·h/mL |
| COc1cc2nccc(Oc3ccc(NC(=O)C4(C(=O)Nc5ccc(F)cc5)CC4)cc3)c2cc1OC | human patients with toxicity, plasma | oral, dose not given, median | 28600 ng·h/mL |
| C[C@@H](c1ccc2nccn2c1)n1nnc2ncc(-c3cnn(C)c3)nc21 | human, plasma | oral, dose not given, cycle 1 day 1, single dose, all | 17300 ng·h/mL |
| CNC(=O)n1ccc2cc(Oc3ccnc(NC(=O)c4ccc(C5CCN(CCO)CC5)cc4)c3)c(OCCOC)cc21 | healthy human, plasma | oral, 35 mg, geometric mean, 0-72 h, together with: rabeprazole 20 mg | 109 ng·h/mL |
| C=CC(=O)N(C)CCOc1c(N)ncnc1-c1cc(F)cc(NC(=O)c2ccc(C3CC3)cc2F)c1C | human, plasma | oral, 1.5 mg single dose | 0.315 ng·h/mL |
| CC#CC(=O)N1CCC[C@H]1c1nc(-c2ccc(C(=O)Nc3ccccn3)cc2)c2c(N)nccn12 | human, plasma | oral, dose not given, 50 mg twice daily dosing, together with: itraconazole 200 mg | 1240 ng·h/mL |
| N#Cc1cc(NC(=O)[C@H]2c3ccccc3C(=O)N(CC(F)(F)F)[C@@H]2c2cccnc2)ccc1F | human, plasma | oral, 600 mg, fed, median, interim | 23500 ng·h/mL |
| COc1ccc2[nH]c([S@+]([O-])Cc3ncc(C)c(OC)c3C)nc2c1 | human, dried blood spots | oral, 10 mg omeprazole, together with: fluvoxamine | 585 ng·h/mL |
| O=C(COc1ccc(Cl)cc1)NC12CC(c3nnc([C@H]4C[C@@H](OC(F)(F)F)C4)o3)(C1)C2 | healthy human volunteers fasted, plasma | oral, 400 mg single dose, arithmetic mean | 356 µM·h |
| Cc1ccc(C(=O)NC2CC2)cc1-n1ncc(C(=O)c2cccc(C#N)c2)c1N | healthy human | oral, 30 mg single, mean | 16700 ng·h/mL |
| Cc1cc(-c2nccc3c2ccn3CC(=O)Nc2ccc(-c3cnccn3)cn2)ccn1 | human, plasma | oral, 5 mg once daily, day 1, geometric mean | 0.403 µM·h |

For quick reference, copied from above:
| SMILES | system | setting | AUC |
| --- | --- | --- | --- |
| CC#CC(=O)N1CCC[C@H]1c1nc(-c2ccc(C(=O)Nc3ccccn3)cc2)c2c(N)nccn12 | human, plasma | oral, dose not given, 50 mg twice daily dosing, together with: itraconazole 200 mg | 1240 ng·h/mL |
| C/C(=C\c1csc(C)n1)[C@@H]1C[C@@H]2O[C@]2(C)CCC[C@H](C)[C@H](O)[C@@H](C)C(=O)C(C)(C)[C@@H](O)CC(=O)N1 | human patients, plasma | intravenous, 15 mg/m2, cycle 1 day 1, A | 682 ng·h/mL |
